{"data": "Experimental data from different studies", "note": "Each numbered part is a random draw from the data of one study; scales do not carry over between parts.", "sequence of UniProt O43781 (whole entry, looked up)": "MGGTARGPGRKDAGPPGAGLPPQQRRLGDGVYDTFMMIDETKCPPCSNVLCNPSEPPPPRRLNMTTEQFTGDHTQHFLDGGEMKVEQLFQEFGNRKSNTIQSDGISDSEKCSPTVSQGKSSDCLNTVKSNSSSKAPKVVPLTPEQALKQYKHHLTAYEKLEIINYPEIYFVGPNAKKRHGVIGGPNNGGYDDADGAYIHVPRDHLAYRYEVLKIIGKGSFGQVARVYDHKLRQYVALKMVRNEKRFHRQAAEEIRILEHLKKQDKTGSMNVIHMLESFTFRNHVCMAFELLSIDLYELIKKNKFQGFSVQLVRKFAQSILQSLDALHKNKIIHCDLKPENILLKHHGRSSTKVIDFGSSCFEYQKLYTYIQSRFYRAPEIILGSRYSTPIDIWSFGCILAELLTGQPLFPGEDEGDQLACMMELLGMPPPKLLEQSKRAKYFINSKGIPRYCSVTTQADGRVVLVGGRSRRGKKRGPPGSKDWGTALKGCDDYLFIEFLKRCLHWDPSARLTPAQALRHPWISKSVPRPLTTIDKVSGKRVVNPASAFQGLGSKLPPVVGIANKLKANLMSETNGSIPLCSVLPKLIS", "sequence of UniProt P54762 (whole entry, looked up)": "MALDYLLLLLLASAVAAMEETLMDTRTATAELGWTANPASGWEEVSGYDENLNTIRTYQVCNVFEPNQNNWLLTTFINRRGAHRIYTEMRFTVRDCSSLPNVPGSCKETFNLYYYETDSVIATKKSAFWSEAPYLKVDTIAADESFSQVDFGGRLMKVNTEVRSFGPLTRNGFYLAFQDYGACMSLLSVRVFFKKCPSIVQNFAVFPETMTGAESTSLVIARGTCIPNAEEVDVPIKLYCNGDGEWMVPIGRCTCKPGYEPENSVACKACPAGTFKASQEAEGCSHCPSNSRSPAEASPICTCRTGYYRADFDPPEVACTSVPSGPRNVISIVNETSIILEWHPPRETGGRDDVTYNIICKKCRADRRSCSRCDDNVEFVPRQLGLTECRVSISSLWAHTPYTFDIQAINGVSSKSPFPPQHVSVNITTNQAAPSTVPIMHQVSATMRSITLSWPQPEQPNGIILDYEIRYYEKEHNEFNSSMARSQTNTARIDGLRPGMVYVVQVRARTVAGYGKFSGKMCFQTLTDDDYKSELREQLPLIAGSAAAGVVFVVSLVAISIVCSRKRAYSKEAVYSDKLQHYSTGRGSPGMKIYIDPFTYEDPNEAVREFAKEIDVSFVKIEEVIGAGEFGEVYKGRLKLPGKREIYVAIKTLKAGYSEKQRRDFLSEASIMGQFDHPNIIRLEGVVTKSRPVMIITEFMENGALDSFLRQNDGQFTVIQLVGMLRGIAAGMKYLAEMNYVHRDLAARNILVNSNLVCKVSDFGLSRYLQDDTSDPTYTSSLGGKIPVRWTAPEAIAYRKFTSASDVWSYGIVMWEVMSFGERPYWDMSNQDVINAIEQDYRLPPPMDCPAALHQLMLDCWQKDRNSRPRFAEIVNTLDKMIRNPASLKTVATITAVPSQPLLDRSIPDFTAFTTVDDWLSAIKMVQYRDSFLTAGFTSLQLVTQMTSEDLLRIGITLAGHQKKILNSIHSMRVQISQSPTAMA", "sequence of UniProt Q00534 (whole entry, looked up)": "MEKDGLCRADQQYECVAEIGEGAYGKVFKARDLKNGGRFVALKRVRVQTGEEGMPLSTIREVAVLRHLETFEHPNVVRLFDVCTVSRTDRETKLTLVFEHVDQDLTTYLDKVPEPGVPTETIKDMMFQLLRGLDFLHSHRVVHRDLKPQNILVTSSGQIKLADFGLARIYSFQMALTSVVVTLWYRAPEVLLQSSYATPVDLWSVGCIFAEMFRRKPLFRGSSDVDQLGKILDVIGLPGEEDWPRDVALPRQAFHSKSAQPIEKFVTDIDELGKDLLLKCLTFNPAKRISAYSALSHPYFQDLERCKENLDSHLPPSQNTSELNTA", "sequence of UniProt Q16644 (whole entry, looked up)": "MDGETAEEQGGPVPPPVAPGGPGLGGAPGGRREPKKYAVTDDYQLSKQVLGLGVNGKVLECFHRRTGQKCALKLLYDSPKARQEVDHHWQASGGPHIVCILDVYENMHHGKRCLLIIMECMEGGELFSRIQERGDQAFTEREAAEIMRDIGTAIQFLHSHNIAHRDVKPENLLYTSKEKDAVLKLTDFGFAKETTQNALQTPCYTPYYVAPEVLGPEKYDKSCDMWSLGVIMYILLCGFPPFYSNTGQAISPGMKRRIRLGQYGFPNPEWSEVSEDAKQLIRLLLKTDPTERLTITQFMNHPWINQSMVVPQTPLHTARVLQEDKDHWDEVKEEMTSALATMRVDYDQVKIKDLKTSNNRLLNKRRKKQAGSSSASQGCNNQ", "sequence of UniProt O75716 (whole entry, looked up)": "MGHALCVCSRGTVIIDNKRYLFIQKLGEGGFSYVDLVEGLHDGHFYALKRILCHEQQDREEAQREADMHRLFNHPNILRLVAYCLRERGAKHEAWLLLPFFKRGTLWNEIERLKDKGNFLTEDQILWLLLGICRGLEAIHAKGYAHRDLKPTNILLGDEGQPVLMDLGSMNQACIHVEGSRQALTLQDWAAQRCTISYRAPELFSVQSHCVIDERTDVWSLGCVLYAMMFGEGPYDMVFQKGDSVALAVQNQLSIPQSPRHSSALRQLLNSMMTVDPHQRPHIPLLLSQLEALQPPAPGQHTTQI", "sequence of UniProt O75582 (whole entry, looked up)": "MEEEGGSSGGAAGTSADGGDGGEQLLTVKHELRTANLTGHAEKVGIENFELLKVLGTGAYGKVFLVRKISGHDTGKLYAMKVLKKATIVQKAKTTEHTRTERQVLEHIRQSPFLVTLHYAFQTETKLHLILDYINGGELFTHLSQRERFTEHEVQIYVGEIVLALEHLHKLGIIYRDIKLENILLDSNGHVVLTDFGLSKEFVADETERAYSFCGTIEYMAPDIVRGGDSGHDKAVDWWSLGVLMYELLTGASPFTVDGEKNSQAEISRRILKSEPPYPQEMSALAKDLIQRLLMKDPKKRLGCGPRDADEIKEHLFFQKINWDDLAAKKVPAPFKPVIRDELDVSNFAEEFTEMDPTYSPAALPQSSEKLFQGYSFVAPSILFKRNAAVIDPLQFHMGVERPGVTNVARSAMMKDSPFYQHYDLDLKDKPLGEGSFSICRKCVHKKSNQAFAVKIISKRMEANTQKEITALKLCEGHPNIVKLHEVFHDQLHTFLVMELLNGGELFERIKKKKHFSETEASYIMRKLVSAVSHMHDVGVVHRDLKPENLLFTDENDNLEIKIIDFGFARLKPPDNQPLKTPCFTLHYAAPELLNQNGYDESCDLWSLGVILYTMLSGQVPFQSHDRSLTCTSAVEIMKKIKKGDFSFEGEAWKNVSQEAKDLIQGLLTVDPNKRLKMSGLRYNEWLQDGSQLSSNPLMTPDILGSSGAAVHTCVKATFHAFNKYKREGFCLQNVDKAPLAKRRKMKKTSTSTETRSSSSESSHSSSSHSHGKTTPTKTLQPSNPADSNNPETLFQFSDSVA", "sequence of UniProt Q9UK32 (whole entry, looked up)": "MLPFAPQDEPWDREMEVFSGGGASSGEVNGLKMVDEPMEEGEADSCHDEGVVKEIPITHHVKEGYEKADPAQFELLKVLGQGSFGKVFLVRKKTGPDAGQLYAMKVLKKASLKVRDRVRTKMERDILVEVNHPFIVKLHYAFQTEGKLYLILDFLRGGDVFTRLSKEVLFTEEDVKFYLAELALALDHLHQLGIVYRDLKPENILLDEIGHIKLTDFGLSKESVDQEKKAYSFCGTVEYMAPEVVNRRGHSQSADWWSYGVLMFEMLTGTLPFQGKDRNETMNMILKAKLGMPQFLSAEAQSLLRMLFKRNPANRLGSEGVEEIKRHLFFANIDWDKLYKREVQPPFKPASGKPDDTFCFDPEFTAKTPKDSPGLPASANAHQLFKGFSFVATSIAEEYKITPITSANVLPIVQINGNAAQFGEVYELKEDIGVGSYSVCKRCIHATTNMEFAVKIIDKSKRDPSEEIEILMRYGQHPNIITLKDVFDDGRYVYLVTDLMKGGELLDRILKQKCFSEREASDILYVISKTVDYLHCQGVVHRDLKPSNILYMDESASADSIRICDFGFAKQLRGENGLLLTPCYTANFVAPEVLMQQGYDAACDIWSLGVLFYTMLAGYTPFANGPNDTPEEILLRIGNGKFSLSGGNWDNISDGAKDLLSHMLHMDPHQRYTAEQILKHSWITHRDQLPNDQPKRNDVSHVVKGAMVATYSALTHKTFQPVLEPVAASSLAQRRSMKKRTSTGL", "sequence of UniProt P06493 (whole entry, looked up)": "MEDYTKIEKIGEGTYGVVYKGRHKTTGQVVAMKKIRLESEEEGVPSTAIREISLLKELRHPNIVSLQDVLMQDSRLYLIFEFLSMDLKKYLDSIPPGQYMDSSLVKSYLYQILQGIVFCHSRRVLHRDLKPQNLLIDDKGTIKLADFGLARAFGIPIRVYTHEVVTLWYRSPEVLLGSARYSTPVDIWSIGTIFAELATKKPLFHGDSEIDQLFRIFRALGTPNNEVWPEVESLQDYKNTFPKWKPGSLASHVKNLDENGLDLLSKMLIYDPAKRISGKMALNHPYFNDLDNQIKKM"}
{"data": "Sample 1", "target": "TAR DNA-binding protein 43, full length, His tag (TARDBP, Homo sapiens, UniProt Q13148, residues 1-414)", "technique": "RNA Bind-n-Seq", "form": "RNA", "sample": "in vitro", "tested at": "20 nM", "notes": "6-mer, flanks averaged, single round", "added": "150 mM KCl", "baseline": "input library", "reading": "higher = stronger binding"}
{"Oligonucleotide": "ACAGGG", "6-mer enrichment (R)": 2.37}
{"Oligonucleotide": "GGUGGU", "6-mer enrichment (R)": 2.95}
{"Oligonucleotide": "GGCUUA", "6-mer enrichment (R)": 0.87}
{"Oligonucleotide": "CUCCCC", "6-mer enrichment (R)": 0.675}
{"Oligonucleotide": "UAGUGA", "6-mer enrichment (R)": 0.84}
{"Oligonucleotide": "UAUUAC", "6-mer enrichment (R)": 0.584}
{"Oligonucleotide": "GUCUUU", "6-mer enrichment (R)": 0.635}
{"Oligonucleotide": "AUAGAU", "6-mer enrichment (R)": 0.623}
{"data": "Sample 2", "Compound": "COC[C@H]1OC(=O)c2coc3c2[C@@]1(C)C1=C(C3=O)[C@@H]2CCC(=O)[C@@]2(C)C[C@H]1OC(C)=O", "effect on": "enzyme activity", "mode": "inhibitor", "tested at": "0.5 µM", "baseline": "control"}
{"target": "Cyclin-dependent kinase 1, with cyclin B (CDK1, Homo sapiens, UniProt P06493)", "remaining activity [%]": 101}
{"target": "Serine/threonine-protein kinase 16 (STK16, Homo sapiens, UniProt O75716)", "remaining activity [%]": 88.8}
{"target": "Ribosomal protein S6 kinase alpha-5 (RPS6KA5, Homo sapiens, UniProt O75582)", "remaining activity [%]": 92.2}
{"target": "Ephrin type-B receptor 1 (EPHB1, Homo sapiens, UniProt P54762)", "remaining activity [%]": 89.9}
{"target": "Dual specificity tyrosine-phosphorylation-regulated kinase 3 (DYRK3, Homo sapiens, UniProt O43781)", "remaining activity [%]": 92.6}
{"target": "MAP kinase-activated protein kinase 3 (MAPKAPK3, Homo sapiens, UniProt Q16644)", "remaining activity [%]": 96.5}
{"target": "Cyclin-dependent kinase 6, with cyclin D3 (CDK6, Homo sapiens, UniProt Q00534)", "remaining activity [%]": 85.8}
{"target": "Ribosomal protein S6 kinase alpha-6 (RPS6KA6, Homo sapiens, UniProt Q9UK32)", "remaining activity [%]": 96.7}
{"data": "Sample 3", "target": "HLA class I histocompatibility antigen, A alpha chain, allele A*80:01 (Homo sapiens, UniProt P04439)", "effect on": "peptide-MHC binding", "form": "peptide", "reading": "direction not given"}
{"Sequence": "ASLIPDATY", "z-score of log IC50": 0.38}
{"Sequence": "FHKRDMRLL", "z-score of log IC50": 0.38}
{"Sequence": "ATKDSFQSF", "z-score of log IC50": 0.38}
{"Sequence": "APVESMALF", "z-score of log IC50": 0.38}
{"Sequence": "FPASHMATY", "z-score of log IC50": 0.38}
{"Sequence": "FTFERSKIK", "z-score of log IC50": 0.38}
{"Sequence": "APRRRDEEL", "z-score of log IC50": 0.38}
{"Sequence": "CLVSGLSSL", "z-score of log IC50": 0.38}
{"Sequence": "AESICSYWL", "z-score of log IC50": 0.38}
{"Sequence": "FTWQHNYYL", "z-score of log IC50": 0.38}
{"Sequence": "DMYFCHFYK", "z-score of log IC50": 0.38}
{"Sequence": "FHARFVQAL", "z-score of log IC50": 0.38}
{"Sequence": "AFHQLVQVI", "z-score of log IC50": 0.38}
{"Sequence": "FMKSRVYSI", "z-score of log IC50": 0.38}
{"Sequence": "FGAQMGWPV", "z-score of log IC50": 0.38}
{"Sequence": "GIVCYNEEV", "z-score of log IC50": 0.38}
{"Sequence": "FHVNPAFVL", "z-score of log IC50": 0.38}
{"data": "Single results of other studies"}
{"Structure (SMILES)": "COC1(C[S+]([O-])c2ccccc2)CCN(CCc2c[nH]c3ccc(F)cc23)CC1 (stereo not shown)", "cell line": "mouse MPNST tumor cells", "test": "high-content immunofluorescence imaging, item: nuclear SOX9", "conditions": "10 µM, 12 h, mean of 2 replicates", "scale": "baseline: DMSO control, higher = more nuclear SOX9", "measurement": "nuclear SOX9 intensity", "value": "110 % of DMSO"}
{"note": "A few entries again (sample 3):"}
{"Sequence": "FGAQMGWPV", "z-score of log IC50": 0.38}
{"Sequence": "GIVCYNEEV", "z-score of log IC50": 0.38}
